Assay results from different studies.
Every numbered part comes from another study and shows a few of its results, in no order. Changes are numbered by the printed parent chain.

Series 1
Target: CCND2, cyclin fold, Cln2 fusion (human)
Technique: yeast growth competition, sequencing
Medium: yeast
Notes: weak parent motif
Relative to: not given
Direction: higher = stronger binding
Starting sequence: ITGB3BP docking peptide (human); MPVKRSLKLDGLL; partner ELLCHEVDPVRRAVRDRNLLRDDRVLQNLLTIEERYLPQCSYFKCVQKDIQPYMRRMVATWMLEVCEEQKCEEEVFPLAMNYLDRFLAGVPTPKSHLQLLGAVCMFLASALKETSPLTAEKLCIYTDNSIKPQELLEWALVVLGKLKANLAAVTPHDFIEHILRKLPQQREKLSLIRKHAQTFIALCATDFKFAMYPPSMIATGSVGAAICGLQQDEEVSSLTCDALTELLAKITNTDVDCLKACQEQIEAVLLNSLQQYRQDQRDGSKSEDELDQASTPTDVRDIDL
Variant	normalised enrichment score
G11A	0.0141
L9A	0.221
P2A	0.124
L13A	0.143
R5K L9F	-0.0795
D10A	-0.158
S6A	0.308

Series 2
Target: Interferon regulatory factor 5, full length, phosphomimetic (IRF5, Homo sapiens, UniProt Q13568-2, residues 1-514, S451D/S453D/S456D/S462D)
Technique: protein-binding microarray
Form: double-stranded DNA, one strand shown
Medium: in vitro
Tested at: 940 nM top
Notes: 60-bp whole probe
Together with: salmon DNA 0.4 mg/ml
Relative to: random background probes
Direction: higher = stronger binding
Constant ends, left off below: GCCTAGCAC … GTCTTGATTCGCTTGACGCTGCTG
Strand	fitted relative affinity [z-score]
TCACCTTTGCCTCCAGGACTGTGCTAG	0.398
TTAGGTTTCGGGACTGGTTTAGTGCTA	8.15
TTTGCTTTCATTTATTTACTGTGCTAG	2.85
TTTGGTTTCGGTCTCGGTTAGTGCTAG	17.9
GACGGTTTGGACTTTCGGGACGTGCTA	0.523
TTAGGTTTCCTTATCCTGTAGTGCTAG	1.76
TTTGAACTGAGACTGGATTAGTGCTAG	0.0111
CACGATATCAGTTTCGAGACGTGCTAG	3.91
TCATTTACCACATTCTCACTGTGCTAG	1.4
GACCGTATCGGGTATCGGGACGTGCTA	3.14
TTAGATTTCGGTCTCGGTTAGTGCTAG	4.97
GACAGACTGGGGACTGGGGACGTGCTA	0.0162
GACGATCTCGGACTGGGGACGTGCTAG	0.134

Series 3
Target: Histone acetyltransferase KAT6A, winged helix 2, GST fusion (KAT6A, Homo sapiens, UniProt Q92794, residues 85-181)
Technique: protein binding microarray
Form: double-stranded DNA, one strand shown
Medium: in vitro
Tested at: not given
Notes: 8-mer, flanks averaged, mean of 2 arrays, mostly near background
Relative to: not given
Direction: higher = stronger binding
Target sequence (chain): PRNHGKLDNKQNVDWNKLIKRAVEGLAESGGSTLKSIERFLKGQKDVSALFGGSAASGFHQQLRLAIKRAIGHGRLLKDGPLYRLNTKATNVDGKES
Strand	E-score
AGTTCTCA	-0.0795
ACTTTGAC	0.0271
AATTGACA	0.217
AGGGCATC	-0.0131
CCACTCTC	-0.0392
ATCTAGAC	-0.0502
CCCGATCC	0.0346
CGTGCACA	-0.113
GAGGCCAA	0.0144
ACATGTCA	-0.177
ACCCACCT	-0.134
ATAGGACA	-0.278
ACTAGCAG	-0.0194
ACTGCGTG	0.1
ATTTTTCG	0.11
TCCTTTAA	-0.0723

Series 4
Target: Prothrombin, mature alpha-thrombin (F2, Homo sapiens, UniProt P00734)
Technique: aptamer microarray, sandwich
Form: DNA with 2'F-ANA
Medium: in vitro
Tested at: 200 nM
Notes: whole 15-mer aptamer, many near background
Together with: Cy3 exosite-II aptamer, 400 nM
Direction: higher = stronger binding
Strand: GGTTGGTGTGGTTGG
Modification	mean fluorescence intensity [a.u.]
2'F-ANA at 1 2 4 5 6 7 12 14	45.6
2'F-ANA at 3 6 9 12	1260
2'F-ANA at 1 2 3 4 5 6 8 9 11 12	188
2'F-ANA at 2 5 7 9 11 14	54.4
2'F-ANA at 2 4 5 7 10 12 14 15	47.4
2'F-ANA at 1 4 6 7 8 12 14	57.7
2'F-ANA at 1 2 4 7 9 10 12 13 14	52
2'F-ANA at 1 4 6 8 11 13	90.7
2'F-ANA at 2 5 8 9 11 12 13 14	46.5
2'F-ANA at 3 5 6 7 10 13 14 15	131
2'F-ANA at 1 3 5 6 7 8 9 11 12 13 14	50.7
2'F-ANA at 1 2 4 8 11 13 14	52.9
2'F-ANA at 6 7 10 13 15	132
2'F-ANA at 1 3 6 7 11 12 13 14	101
2'F-ANA at 2 3 4 5 6 8 12 13 15	120
2'F-ANA at 2 3 5 6 11 12 13 14	120
2'F-ANA at 1 2 3 5 6 13 15	51.5
2'F-ANA at 5 8 9 10 12 14 15	46.8
2'F-ANA at 1 2 5 6 7 8 10 13 15	52
2'F-ANA at 2 3 8 14	465
2'F-ANA at 1 3 4 7 9 10 11 12 13 14 15	61
2'F-ANA at 1 5 6 7 8 9 10	47.6

Series 5
Target: UBE2E1 UBC core domain (UniProt P51965)
Sequence of UniProt P51965 (whole entry, looked up): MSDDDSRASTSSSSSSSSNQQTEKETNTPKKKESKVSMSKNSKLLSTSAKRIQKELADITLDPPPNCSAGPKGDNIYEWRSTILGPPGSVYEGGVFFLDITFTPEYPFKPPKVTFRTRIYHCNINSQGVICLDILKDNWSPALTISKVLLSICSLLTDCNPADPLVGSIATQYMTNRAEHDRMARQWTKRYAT
Technique: yeast two-hybrid
Medium: yeast
Notes: mostly zero background
Relative to: not given
Direction: higher = stronger interaction
B1: RNF130 RING domain (UniProt Q86XS8); chain DKETDPDFDHCAVCIESYKQNDVVRILPCKHVFHKSCVDPWLSEHCTCPMCKLNILKALGIV
B2: RNF17 RING domain (UniProt Q9BXT8); chain SQPWGAAEIQCTRCGRRVSRSSGHHCELQCGHAFCELCLLMTEECTTIICPDCEVATAVNTRQR
B3: TRIM32 RING domain (UniProt Q13049); chain NLDALREVLECPICMESFTEEQLRPKLLHCGHTICRQCLEKLLASSINGVRCPFCSKITRITSLTQ
B4: ARIH1 RING domain (UniProt Q9Y4X5); chain NTRSSAQDMPCQICYLNYPNSYFTGLECGHKFCMQCWSEYLTTKIMEEGMGQTISCPAHGCDILVDDNTVM
B5: TRIM74 RING domain (UniProt Q86UV6); chain SLLELEDWLQCPICLEVFKESLMLQCGHSYCKGCLVSLSYHLDTKVRCPMCWQVVDGSSSLP
B6: TRIM47 RING domain (UniProt Q96LD4); chain MDGSGPFSCPICLEPLREPVTLPCGHNFCLACLGALWPHRGASGAGGPGGAARCPLCQEPFPDGLQLR
Sequence	lacZ reporter activity
B1 (RNF130 RING domain)	4900
B2 (RNF17 RING domain)	0
KITELNPHLMCALCGGYFIDATTIVECLHSFCKTCIVRYLETNKYCPMCDVQVHKTRPLL (PCGF2 RING domain (UniProt P35227))	0
B3 (TRIM32 RING domain)	0
VPADASPDSKCPICLDRFDNVSYLDRCLHKFCFRCVQEWSKNKAECPLCKQPFDSIFHSV (TOPORS RING domain (UniProt Q9NS56))	12500
SNNDLASLFECPVCFDYVLPPILQCQSGHLVCSNCRPKLTCCPTCRGPLGSIRNLA (SIAH1 RING domain (UniProt Q8IUQ4))	0
B4 (ARIH1 RING domain)	0
B5 (TRIM74 RING domain)	0
B6 (TRIM47 RING domain)	0

A few entries again (series 4):
Modification	mean fluorescence intensity [a.u.]
2'F-ANA at 2 5 7 9 11 14	54.4
2'F-ANA at 2 4 5 7 10 12 14 15	47.4
2'F-ANA at 1 4 6 7 8 12 14	57.7
2'F-ANA at 1 2 4 7 9 10 12 13 14	52
